Published values collected from several papers.
Parts stem from different laboratories: compare values within a part only.

Series 1
Target: Hepatocyte nuclear factor 3-alpha (Foxa1, Mus musculus, UniProt P35582, residues 1-468, full length assumed)
Technique: EMSA with sequencing
Molecule type: double-stranded DNA, one strand shown
Sample: in vitro
Tested at: 10 and 20 nM
Notes: whole designed probe, mean of two concentrations, ends assumed
Relative to: negative control set to 0
Direction: higher = stronger binding
Residues (chain): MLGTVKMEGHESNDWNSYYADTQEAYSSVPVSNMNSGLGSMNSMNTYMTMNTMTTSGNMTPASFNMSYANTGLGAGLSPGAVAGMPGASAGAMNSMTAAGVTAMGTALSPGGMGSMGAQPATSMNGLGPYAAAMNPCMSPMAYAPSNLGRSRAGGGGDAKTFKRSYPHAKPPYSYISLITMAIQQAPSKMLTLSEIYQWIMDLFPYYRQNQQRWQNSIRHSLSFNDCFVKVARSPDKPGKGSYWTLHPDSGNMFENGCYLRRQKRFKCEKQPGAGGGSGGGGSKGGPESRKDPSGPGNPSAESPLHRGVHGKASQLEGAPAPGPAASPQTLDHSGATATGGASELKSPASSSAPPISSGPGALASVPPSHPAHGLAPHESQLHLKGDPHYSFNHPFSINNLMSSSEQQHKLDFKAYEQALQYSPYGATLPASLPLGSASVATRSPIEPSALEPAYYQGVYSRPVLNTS
Sequence | normalised bound fraction [ratio]
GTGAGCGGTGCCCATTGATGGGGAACATCTTCCCCCTCTTCCTTGCCCCACCAGCTCACCTTCCCGGGTTATTTGCACAAAGGAAAATAAATAAAGCCGGCATTCGTTAACGCAGTTCTGGCGCAAACTGCTGTTTGCTCTGCATCTAACATGGTCCTTACGCGAGGCGTGGCTCCGGGAGAGCAAAGCACCGTGTCAGGCGCATGATCCGGGCTCGCCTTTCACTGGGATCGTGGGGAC | 0.389
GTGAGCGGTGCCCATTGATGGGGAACATCCACGAACCTGGCCCTGTCTGGTAACCACAGTGAACCATCGCAAGATACAGCACTATGTGCCCAGTTGTAATGACTCACGGCTGGAACCAGTGTTGACACATCACATCCTCAGGGACACGGAAGTGTACTTGTTTTTGGAGAGGGACTAGACCTTCATCCTTGAGGTGAAGAAGATTTTCTCTCCAGGGTGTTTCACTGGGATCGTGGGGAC | 0.104
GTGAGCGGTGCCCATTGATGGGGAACGAAATTATGACTATCACTGTGAGGAGAAAATTGCATTGCTATGTGAAAAGAAATTCTCCTAGTTGTCCATTTTTTAAAGCTATATTTTTCCTTGTTTACTTTAACATTTGTGGAGGTTGTTTTATTGACCCTAAATCCACAAATATTCTGTTTTCTCTTGAATCAATAATCACCCTGTTTCCTCCTGGTTGTTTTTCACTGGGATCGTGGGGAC | 0.451
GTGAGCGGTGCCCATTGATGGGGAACTTTCCTGGCTGGCAGTTCCTGGGAGGGAGGGGCTCCAGCAGCCGGGAGGCAGGGTGCCGGCCTGCAGTGGCCTATCTTGGTCCCTGCCCAGAGTAAATAAAGGCCGAGCATCTCAGCACGGCTGCCACACCCCCGACTCCACTTCCTCCCTTTGGGGATTCCTGTTGGCTTCTGTGTCCTAGCCTGGCACCCCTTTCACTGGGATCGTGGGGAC | 0.367
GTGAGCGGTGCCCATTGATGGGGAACATCTTCCCCCTCTTCCTTGCCCCACCAGCTCACCTTCCCGGGTTATTTGCACAAAGGAAAATAAATAAAGCCGGCATTCGTTAACGCAGTTCACGCGCATACTGCTGTTTGCTCTGCATCTAACATGGTCCTTACGCGAGGCGTGGCTCCGGGAGAGCAAAGCACCGTGTCAGGCGCATGATCCGGGGTGGCCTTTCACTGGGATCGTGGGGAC | 0.384
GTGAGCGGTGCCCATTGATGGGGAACGAATAATCCCATTGTAAGTCACTCGCCTTCTGGTGGATTTCGGTCAGGGTCAAAGAGCAAACGGGCAGGAACTGGGCTGTTTGAATGAGCTTTGTAAACAAGGTCGTCATCAAGCCATGACTCAATACACAGTGAATTATCTGAAGCCTTTTAGAATTAGCAACTAACCTCCAGGAAACTGGTGCATGTTGCATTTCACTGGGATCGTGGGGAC | 0.228

Series 2
Target: Interferon regulatory factor 5, full length, phosphomimetic (IRF5, Homo sapiens, UniProt Q13568-2, residues 1-514, S451D/S453D/S456D/S462D)
Technique: protein-binding microarray
Molecule type: double-stranded DNA, one strand shown
Sample: in vitro
Tested at: 940 nM top
Notes: 60-bp whole probe
Added: salmon DNA 0.4 mg/ml
Relative to: random background probes
Direction: higher = stronger binding
All sequences stand within: GCCTAGCAC … GTCTTGATTCGCTTGACGCTGCTG
Sequence | fitted relative affinity [z-score]
TTAGGACTGGGACTGTGTTAGTGCTAG | -0.502
GACGGTTCCGGTTTCGGGTCGTGCTAG | 8.43
TTAGGTTTCGCCTATCGGTTAGTGCTA | 8.43
TTAGGGCTGCTTTTCCTTTAGTGCTAG | -0.208
TTAGGTATCGCCTTTCGGTTAGTGCTA | 4.37
AACGGACTGGGGTATCGGGACGTGCTA | 0.254
TACGGTTTCGACACTGGGGACGTGCTA | 6.55
TCATTCCTGATCTCTGGTACTGTGCTA | 0.298
TTAGGTTTCGACACTGGTTTAGTGCTA | 8.26
GACGGTATCGACCTTCGGGACGTGCTA | 3.06
GACGCTTTCGACACTGGGGACGTGCTA | 2.34
TCAAGTGTGTGTCTGATACTGTGCTAG | -0.158
TTACGTTTCGGTATCGGTTAGTGCTAG | 11.6
GACGAACTGGGGTATCCAGACGTGCTA | -0.247
CTAGGACTGGGTCTCGGTTAGTGCTAG | 1.23
GACGGTCTCGGTTTCGGGAGGTGCTAG | 6.03
GACGGTCTCGTTCTCCTGACGTGCTAG | 2.13
GTGTTTTCACTTTTCCTACAGTGCTAG | 3.07

Series 3
Target: RNA binding protein fox-1 homolog 2, RRM domain, GST-SBP tag (RBFOX2, Homo sapiens, UniProt O43251-10, residues 100-194)
Technique: RNA Bind-n-Seq
Molecule type: RNA
Sample: in vitro
Tested at: 365 nM
Notes: natural RNA segment, single round, ends assumed
Relative to: no-protein control
Direction: higher = stronger binding
Target sequence (chain): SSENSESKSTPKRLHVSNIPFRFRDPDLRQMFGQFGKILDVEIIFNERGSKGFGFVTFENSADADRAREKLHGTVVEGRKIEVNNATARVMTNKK
Sequence | RBNS enrichment (R)
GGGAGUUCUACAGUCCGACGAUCUCGCAGCUGGAGUGAGAGGCAGGUGGCGGCCGGGGCCGAAGCCAGCAGUGUCUAAACCCCCGGAGCCAUCUUGCUGCCGACACCCUGCUUUCCCCUCGCCCUAGGGCUCCUGGAAUUCUCGGGUGCCAA | 0.208
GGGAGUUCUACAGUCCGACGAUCAGGUGGCCUAGGUCCUGGAGAUGAGCACCCUCUCUCUGGCCUUUAGGGAGUCCCCUCUUAGGACAGGCACUGCCCAGCAGCAAGGGCAGCAGAGUUGGGUGCUAAGAUCCUGGAAUUCUCGGGUGCCAA | 0.248
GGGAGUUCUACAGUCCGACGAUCCGUGGAGUGGUCCUAACAAGAGAGCCUGACCUUAGGCUGUACACACACUGUGGAAUUUCUUCAAGGGAGCUGCCGGCCGGCGCAGAACCCCCAGGAGCACAGGUCUCUCCUGGAAUUCUCGGGUGCCAA | 0.305
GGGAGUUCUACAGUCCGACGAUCCAUAAAGAUGUCUGCAGCUAUUUCCUACCCAGAUGUUCCUGAUGUGAUAAGCAGGGGACUUUUUUUUUUUUUCCUUCAGAUGCUAUCCAUAAAAUCCAAGCCCUUUCUUAUGGAAUUCUCGGGUGCCAA | 0.833
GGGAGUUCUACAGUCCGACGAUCUGGCGCGCUGAUUAGACUUCAGUUCCUGAAAAGGACCAGUGGAGGGAAGAGCUAUACUUCUGGAGAAGUAGGCCUGGAGUUACUACAGUAUGGGGGAAAAGGGUCGAGUUUGGAAUUCUCGGGUGCCAA | 1.01
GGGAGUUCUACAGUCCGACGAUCUAGGCUUUUUUCUCUCUGCAACAUUUGUUCCUGGAAGAAAAGAGCAGAUGGAUUAUUUGUCGACCAAAAUGAUGCCAAUUUGUAAAUUAAAAUGUCACCUAGUGGCCCUUUGGAAUUCUCGGGUGCCAA | 0.329
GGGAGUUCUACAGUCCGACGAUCCCCGAGAUGAUCCUCAGCAUGAUGGACCGGUGUGGCGGAGCCUUGUGCGUCGCCAGGACUUCUCUGGGCUGUGUUUAAACGGCCCGCAUCUUAAUUUUUCUCCCUUCUUUUGGAAUUCUCGGGUGCCAA | 33.2
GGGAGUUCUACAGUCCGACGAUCUCACUUGGAACAUUAGAGCUCCUGAAGCCUGUCUGUCUUAAGACGUUGGGAAAGCCUCGUGUUGAAAGCCGGGGGAGCUUAAAUGAUCCAGGUGGUAGCUAGGGACCGUCUGGAAUUCUCGGGUGCCAA | 0.667
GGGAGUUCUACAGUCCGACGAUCCGUAUGUCAGUGUAUCUGGAUACACGAGGAAAAGGAAAGAGUCUCAGAGUGGAACAAAGAGUGGGAAGAGGUGAUCUGUAAUGUUACAAAUUGUGCUAUUACUCCAAGGUUGGAAUUCUCGGGUGCCAA | 0.57

Series 4
Target: Ras GTPase-activating protein-binding protein 1, RRM domain (G3BP1, Homo sapiens, UniProt Q13283)
Sequence of UniProt Q13283 (whole entry, looked up): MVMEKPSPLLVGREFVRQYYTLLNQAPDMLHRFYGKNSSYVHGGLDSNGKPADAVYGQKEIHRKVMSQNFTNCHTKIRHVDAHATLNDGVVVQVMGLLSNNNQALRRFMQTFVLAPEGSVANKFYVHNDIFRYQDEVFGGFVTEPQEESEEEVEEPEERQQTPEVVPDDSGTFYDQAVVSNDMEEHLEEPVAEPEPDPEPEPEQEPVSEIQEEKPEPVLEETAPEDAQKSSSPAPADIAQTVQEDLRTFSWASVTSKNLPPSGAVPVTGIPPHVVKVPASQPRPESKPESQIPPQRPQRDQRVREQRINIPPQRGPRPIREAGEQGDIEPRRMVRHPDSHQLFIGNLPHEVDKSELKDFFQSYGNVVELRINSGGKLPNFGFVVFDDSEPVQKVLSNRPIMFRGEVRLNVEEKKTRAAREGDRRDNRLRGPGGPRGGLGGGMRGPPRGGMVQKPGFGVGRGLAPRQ
Technique: RNA Bind-n-Seq
Molecule type: RNA
Sample: in vitro
Tested at: 1 µM
Notes: whole 134-nt RNA, ends assumed
Added: 150 mM KCl
Relative to: input library
Direction: higher = stronger binding
Sequence | log2 enrichment
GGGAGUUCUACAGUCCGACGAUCCACAGACAACACGCACCCACACAGACACAGAGGAAAGGGGUUGGGAUGGGGACAGGGUGCACAGCAGGGCGGGGUAGGACCCCAGCCCCUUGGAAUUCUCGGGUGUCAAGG | -0.177
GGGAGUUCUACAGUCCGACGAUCUCCUGUGCUACACAUCGUAUGUACCGAAUCGGCCCCCGGGGCCCCCGGGGCCCCCGGGGAAAGUAUUAUGUUACGCCGUUCGGAUCUGCAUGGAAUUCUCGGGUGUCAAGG | -0.693
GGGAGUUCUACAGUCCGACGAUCUCCUGUGCUACACAUCGUAUGUACCGAAUCGGGGUUUUUUUGGGGAGGGGUUUUUGGGGAAAGUAUUAUGUUACGCCGUUCGGAUCUGCAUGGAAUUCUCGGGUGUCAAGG | 0.59
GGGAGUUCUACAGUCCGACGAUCCAAGUCCUGUGCUACACAUCGUAUGUACCGAAUCGGUUUUUGGUUUUUUUGGUGGAAAGUAUUAUGUUACGCCGUUCGGAUCUGCACUUCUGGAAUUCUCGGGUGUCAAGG | -0.332
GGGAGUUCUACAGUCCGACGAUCUUGGCUACAAUGCAGAGACACAGAAACUACUAUGCAAGAAUGGGGAAACGCUGCUAGGAGCCGUGAACUUCUUUGUCUCUAGCAUCAACAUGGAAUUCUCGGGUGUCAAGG | 0.043
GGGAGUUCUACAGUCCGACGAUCUAACUUUAGAGGAGGAUCUGAUGGAUAUGGCAGUGGACGUGGAUUUGGGGAUCGCUAUAAUGGGUAUGGAGGAGGACCUGGAGGUGGCAAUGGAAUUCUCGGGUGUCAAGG | -0.205
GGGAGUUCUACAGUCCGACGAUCUGGCCCUGGUGGCAGGCGGGGAGGAAGAGGUGGCCUCAUGGAUCGUGGUGGUCCCGGUGGAAUGUUCAGAGGUGGCCGUGGUGGAGACAGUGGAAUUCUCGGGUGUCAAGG | 0.93
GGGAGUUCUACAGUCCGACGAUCUGGCCCUGGUGGCAUGCGGGGAGGAAGAGGUGGGCUCAUGGAUCGUGGUGGUCCCGGUGGAAUGUUCAGAGGUGGCCGUGGUGGAGACAGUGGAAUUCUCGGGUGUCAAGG | 0.939
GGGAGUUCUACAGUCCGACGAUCCCUGUGCUACACAUCGUAUGUACCGAAUCGGGUUUUUUGGGGUUUUUUGGGUUUUUUGGGAAAGUAUUAUGUUACGCCGUUCGGAUCUGCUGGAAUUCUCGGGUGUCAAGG | -0.204
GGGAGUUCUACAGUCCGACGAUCGCAGGAAGUAAAAACAAAUGGAAAUGCUUCGGAUAGUGGCAGGGGUGGGGGUUGCUAAGGAAAGGGUGGGAUGGGAGUGGGUAAAGAGGUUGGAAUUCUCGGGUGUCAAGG | 1.01
